Experimental data of several laboratories.
A part holds a random share of what one study measured.
Sequence of UniProt P27361 (whole entry, looked up): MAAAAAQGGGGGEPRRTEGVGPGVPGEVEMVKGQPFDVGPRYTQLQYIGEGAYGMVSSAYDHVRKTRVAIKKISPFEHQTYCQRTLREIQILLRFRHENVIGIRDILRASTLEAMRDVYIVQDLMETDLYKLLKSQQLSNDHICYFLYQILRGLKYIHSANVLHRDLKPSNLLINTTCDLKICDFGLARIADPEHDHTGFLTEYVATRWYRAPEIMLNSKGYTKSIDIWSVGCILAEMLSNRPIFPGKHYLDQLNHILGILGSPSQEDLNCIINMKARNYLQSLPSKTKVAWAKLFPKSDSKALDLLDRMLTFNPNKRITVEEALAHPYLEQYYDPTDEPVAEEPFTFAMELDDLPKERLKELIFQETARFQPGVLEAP
Sequence of UniProt P49841 (whole entry, looked up): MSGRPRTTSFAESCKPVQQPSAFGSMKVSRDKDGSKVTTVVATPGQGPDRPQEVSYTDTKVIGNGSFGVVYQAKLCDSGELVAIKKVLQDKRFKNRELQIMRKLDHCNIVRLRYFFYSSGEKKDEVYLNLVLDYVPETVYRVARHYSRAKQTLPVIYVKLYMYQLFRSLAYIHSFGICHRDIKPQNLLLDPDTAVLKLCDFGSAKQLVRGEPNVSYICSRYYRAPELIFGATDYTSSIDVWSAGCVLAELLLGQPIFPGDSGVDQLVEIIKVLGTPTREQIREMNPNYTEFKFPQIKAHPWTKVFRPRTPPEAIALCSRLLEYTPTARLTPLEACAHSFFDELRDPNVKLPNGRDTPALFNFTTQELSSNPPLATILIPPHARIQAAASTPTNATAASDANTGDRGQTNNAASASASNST
Sequence of UniProt Q5S007 (whole entry, unmodified, looked up): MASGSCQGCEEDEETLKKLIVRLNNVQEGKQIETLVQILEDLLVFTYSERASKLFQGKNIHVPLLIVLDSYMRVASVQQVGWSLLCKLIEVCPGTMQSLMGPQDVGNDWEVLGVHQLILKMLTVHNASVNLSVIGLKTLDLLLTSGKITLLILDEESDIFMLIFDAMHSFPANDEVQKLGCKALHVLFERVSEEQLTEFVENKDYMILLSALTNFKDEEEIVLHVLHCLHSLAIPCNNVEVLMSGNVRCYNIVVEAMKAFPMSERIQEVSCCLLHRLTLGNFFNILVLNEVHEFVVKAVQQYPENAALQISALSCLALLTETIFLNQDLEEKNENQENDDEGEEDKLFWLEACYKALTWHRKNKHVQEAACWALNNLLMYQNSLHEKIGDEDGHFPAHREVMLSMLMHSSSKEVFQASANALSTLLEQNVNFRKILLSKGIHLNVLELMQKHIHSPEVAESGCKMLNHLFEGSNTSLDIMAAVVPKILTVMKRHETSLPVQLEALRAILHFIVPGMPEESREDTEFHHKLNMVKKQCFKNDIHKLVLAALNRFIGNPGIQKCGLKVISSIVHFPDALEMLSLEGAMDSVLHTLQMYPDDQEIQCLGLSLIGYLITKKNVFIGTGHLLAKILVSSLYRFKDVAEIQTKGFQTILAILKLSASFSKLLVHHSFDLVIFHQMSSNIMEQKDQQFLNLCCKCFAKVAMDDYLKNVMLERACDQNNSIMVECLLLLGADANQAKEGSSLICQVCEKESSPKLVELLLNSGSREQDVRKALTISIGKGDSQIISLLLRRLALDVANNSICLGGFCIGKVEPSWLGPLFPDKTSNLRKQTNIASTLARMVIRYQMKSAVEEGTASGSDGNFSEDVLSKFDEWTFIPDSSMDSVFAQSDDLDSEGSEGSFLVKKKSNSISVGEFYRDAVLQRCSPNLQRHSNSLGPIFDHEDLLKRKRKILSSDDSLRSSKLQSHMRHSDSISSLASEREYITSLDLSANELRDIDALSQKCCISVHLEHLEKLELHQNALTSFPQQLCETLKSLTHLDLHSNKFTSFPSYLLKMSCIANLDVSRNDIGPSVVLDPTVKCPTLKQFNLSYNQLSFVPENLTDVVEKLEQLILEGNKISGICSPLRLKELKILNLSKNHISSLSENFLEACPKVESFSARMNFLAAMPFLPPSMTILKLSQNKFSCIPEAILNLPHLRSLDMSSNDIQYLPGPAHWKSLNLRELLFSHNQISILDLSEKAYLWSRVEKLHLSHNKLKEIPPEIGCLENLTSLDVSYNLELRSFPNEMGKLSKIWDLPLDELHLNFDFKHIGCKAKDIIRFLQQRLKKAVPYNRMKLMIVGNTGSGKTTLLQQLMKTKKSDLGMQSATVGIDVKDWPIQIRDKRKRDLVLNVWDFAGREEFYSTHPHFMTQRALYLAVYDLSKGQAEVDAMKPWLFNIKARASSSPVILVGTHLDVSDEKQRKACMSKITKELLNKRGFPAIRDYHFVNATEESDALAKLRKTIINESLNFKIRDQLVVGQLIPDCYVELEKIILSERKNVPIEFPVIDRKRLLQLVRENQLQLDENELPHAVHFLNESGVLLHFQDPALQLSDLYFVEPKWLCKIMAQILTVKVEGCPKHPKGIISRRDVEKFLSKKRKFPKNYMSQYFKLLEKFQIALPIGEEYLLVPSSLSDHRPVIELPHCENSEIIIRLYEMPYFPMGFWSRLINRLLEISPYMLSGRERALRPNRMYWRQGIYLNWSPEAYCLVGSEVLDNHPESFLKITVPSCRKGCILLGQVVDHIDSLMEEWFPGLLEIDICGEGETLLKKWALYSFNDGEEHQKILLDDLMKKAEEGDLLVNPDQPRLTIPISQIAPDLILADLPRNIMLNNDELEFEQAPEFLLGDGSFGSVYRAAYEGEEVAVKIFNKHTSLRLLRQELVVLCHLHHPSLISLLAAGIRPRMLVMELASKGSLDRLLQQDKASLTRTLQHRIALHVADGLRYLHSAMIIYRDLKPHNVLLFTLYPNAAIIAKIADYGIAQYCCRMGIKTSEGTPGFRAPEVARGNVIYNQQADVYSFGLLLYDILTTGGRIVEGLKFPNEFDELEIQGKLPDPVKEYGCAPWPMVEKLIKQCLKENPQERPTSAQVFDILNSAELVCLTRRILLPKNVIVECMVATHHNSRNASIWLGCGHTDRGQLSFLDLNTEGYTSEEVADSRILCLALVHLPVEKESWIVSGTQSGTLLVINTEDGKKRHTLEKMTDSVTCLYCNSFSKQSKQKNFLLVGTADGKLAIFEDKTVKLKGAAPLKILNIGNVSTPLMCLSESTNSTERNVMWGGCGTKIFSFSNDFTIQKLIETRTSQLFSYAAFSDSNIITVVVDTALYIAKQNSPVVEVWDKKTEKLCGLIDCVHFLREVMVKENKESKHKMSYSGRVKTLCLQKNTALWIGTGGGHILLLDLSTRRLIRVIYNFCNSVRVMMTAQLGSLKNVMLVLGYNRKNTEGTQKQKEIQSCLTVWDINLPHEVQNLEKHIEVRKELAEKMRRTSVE
Sequence of UniProt P30291 (whole entry, looked up): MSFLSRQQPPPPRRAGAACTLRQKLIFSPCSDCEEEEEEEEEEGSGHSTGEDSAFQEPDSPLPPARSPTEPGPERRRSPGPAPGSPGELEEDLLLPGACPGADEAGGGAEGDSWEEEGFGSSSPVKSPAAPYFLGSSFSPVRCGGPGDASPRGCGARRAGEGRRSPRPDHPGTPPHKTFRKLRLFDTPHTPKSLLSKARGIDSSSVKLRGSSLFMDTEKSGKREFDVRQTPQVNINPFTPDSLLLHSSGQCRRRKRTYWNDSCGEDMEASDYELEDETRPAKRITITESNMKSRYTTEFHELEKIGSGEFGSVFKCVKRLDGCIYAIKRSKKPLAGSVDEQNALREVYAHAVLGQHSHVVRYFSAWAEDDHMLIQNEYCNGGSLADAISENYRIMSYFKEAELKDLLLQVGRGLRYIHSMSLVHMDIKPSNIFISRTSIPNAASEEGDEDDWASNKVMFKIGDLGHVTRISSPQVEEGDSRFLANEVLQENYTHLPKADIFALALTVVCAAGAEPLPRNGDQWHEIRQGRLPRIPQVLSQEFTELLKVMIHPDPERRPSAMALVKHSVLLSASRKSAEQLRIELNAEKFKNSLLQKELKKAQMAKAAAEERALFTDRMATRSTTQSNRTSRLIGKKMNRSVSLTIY
Sequence of UniProt Q12866 (whole entry, looked up): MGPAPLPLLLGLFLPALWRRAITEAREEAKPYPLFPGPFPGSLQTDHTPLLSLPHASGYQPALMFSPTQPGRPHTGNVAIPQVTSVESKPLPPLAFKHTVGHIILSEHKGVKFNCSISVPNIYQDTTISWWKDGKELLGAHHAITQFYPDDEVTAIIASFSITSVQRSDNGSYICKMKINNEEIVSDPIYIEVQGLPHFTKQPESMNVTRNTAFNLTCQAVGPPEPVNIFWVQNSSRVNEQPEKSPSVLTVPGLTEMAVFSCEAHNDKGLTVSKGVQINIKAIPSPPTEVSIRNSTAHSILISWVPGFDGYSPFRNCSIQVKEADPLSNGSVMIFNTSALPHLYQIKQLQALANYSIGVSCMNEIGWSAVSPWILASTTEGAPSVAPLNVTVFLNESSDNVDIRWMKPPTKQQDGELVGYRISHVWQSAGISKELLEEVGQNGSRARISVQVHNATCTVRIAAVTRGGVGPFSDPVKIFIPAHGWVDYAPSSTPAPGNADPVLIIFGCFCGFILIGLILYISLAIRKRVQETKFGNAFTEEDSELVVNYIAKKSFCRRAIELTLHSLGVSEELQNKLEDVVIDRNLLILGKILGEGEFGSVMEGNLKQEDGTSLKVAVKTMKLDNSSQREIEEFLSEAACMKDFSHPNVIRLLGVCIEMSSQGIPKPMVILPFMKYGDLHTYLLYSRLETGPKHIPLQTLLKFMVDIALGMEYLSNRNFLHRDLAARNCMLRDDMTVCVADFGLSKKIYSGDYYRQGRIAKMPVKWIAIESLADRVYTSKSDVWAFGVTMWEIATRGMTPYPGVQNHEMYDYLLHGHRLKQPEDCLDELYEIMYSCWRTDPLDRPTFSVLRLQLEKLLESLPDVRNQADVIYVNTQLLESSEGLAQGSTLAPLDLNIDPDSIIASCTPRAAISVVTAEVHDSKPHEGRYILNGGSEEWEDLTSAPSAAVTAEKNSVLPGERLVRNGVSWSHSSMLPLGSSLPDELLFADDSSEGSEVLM

Block 1
Structure (SMILES): NS(=O)(=O)c1cc(NC(=O)Cc2ccccc2)ccc1Oc1cccc(Cl)c1
Effect on: cell-free assay
Technique: competition with immobilised ligand
Concentration: 1 µM
| target | remaining binding |
| --- | --- |
| EPHB6 (Homo sapiens, UniProt O15197) | 92% |
| PI4KB (Homo sapiens, UniProt Q9UBF8) | 55% |
| MAPK3 (Homo sapiens, UniProt P27361) | 94% |
| LRRK2 (Homo sapiens, UniProt Q5S007, G2019S) | 100% |
| MAPK6 (Homo sapiens, UniProt Q16659) | 98% |

Block 2
Host: mouse
Matrix: microsomes or S9
Concentration: 2 µM
Time: 0.5 h
| Compound | remaining compound [%] |
| --- | --- |
| COc1cc2c(cc1OC)-c1cc(-c3cc(C#N)n(C)c3C)c(C#N)c(=N)n1CC2 | 78.5 |
| Clc1ccccc1/C=C/c1nc(-c2ccccn2)no1 | 0.191 |
| Cc1ccc2c(-n3ccnc3)c(-c3ccc(Cl)cc3Cl)c([S+](C)[O-])nc2c1 (stereo not drawn) | 41.8 |
| CC(C)CCN(C)c1ccc(C=Nn2cnnc2)cc1 | 6.66 |
| O=C(O)c1sc(C(=O)O)c(OCCO)c1OCCO | 66.3 |

Block 3
Compound: CN(C)CCCn1cc(C2=C(c3c[nH]c4ccccc34)C(=O)NC2=O)c2ccccc21
Effect on: enzyme activity
Action: inhibitor
Concentration: 0.5 µM
Baseline: control
| target | remaining activity |
| --- | --- |
| MAPK3 (Homo sapiens, UniProt P27361) | 108% |
| MAP3K14 (Homo sapiens, UniProt Q99558) | 110% |
| EPHA3 (Homo sapiens, UniProt P29320) | 93% |
| FGFR1 (Homo sapiens, UniProt P11362) | 74.1% |
| ULK2 (Homo sapiens, UniProt Q8IYT8) | 145% |
| NEK6 (Homo sapiens, UniProt Q9HC98) | 96.3% |
| GSK3B (Homo sapiens, UniProt P49841) | 7.01% |
| FRK (Homo sapiens, UniProt P42685) | 92.3% |
| NEK1 (Homo sapiens, UniProt Q96PY6) | 92.5% |
| ARAF (Homo sapiens, UniProt P10398) | 100% |
| MST1R (Homo sapiens, UniProt Q04912) | 109% |
| WEE1 (Homo sapiens, UniProt P30291) | 101% |
| MAP2K2 (Homo sapiens, UniProt P36507) | 98.9% |
| MERTK (Homo sapiens, UniProt Q12866) | 92.2% |

Block 4
Cell line: mouse MPNST tumor cells
Technique: high-content immunofluorescence imaging
Measured: nuclear SOX9
Concentration: 10 µM
Time: 12 h
Notes: mean of 2 replicates
Baseline: DMSO control
Reading: higher = more nuclear SOX9
| Structure (SMILES) | nuclear SOX9 intensity |
| --- | --- |
| c1cc(-c2sc(-c3ccncc3)c(-c3ccncc3)c2-c2ccncc2)ccn1 | 100 % of DMSO |
| COc1ccc2c(-c3ccc(O)c(C)c3)ccnc2c1 | 126 % of DMSO |
| CCOC(=O)C1=C[C@@H](OC(CC)CC)[C@H](NC(C)=O)[C@@H](N)C1 | 98.6 % of DMSO |
| Clc1cc2c(NC3CCCC3)nnc(-c3ccncc3)c2cc1Cl | 119 % of DMSO |
| COC(=O)Nc1nc2cc([S+]([O-])c3ccccc3)ccc2[nH]1 (stereo not drawn) | 101 % of DMSO |
| COc1ccc(Nc2nccc(NCCO)n2)cc1 | 87.8 % of DMSO |

A few entries again (block 3):
| target | remaining activity |
| --- | --- |
| NEK6 (Homo sapiens, UniProt Q9HC98) | 96.3% |
| GSK3B (Homo sapiens, UniProt P49841) | 7.01% |
